Published values gathered from unrelated publications.
Numbered parts are unrelated; each lists some results of a single study. Changes are numbered by the printed parent chain.

Set 1
Target: CCND1, cyclin fold, Cln2 fusion (human)
Technique: yeast growth competition, sequencing
Matrix: yeast
Setting: weak parent motif
Relative to: not given
Reading: higher = stronger binding
Starting sequence: HIRA docking peptide (human); SLSKRKLELEVET; partner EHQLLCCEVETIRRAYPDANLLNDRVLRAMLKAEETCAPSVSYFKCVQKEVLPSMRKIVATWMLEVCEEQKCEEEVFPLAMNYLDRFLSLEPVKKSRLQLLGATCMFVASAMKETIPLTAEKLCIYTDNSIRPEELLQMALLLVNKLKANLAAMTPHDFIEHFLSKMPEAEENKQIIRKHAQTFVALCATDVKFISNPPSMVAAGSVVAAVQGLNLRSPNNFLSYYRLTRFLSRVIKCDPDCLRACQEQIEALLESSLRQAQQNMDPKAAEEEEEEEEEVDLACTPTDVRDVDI
| Substitution | normalised enrichment score |
| --- | --- |
| R5A L7A | 0.697 |
| E10A | 0.0635 |
| L9A | 0.843 |
| T13A | 0.632 |
| L9F | 1.01 |
| R5K | 0.596 |
| E12A | 0.758 |
| R5A | 0.481 |
| K4A | -0.127 |

Set 2
Target: Max dimerization protein 1, bHLH-zipper, MAX partner unstated (MXD1, Homo sapiens, UniProt Q05195, residues 56-136)
Technique: protein-binding microarray
Molecule type: double-stranded DNA, one strand shown
Matrix: in vitro
Tested at: not given
Setting: k-mer, scored over probes, only values ≥0.25
Reading: higher = stronger binding
Residues (chain): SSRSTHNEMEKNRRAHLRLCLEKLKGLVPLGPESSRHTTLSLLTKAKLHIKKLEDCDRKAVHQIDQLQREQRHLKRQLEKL
| Sequence | E-score |
| --- | --- |
| ACATGACC | 0.3 |
| CAAACACG | 0.375 |
| CACGAGAA | 0.371 |
| ATTCATGC | 0.268 |
| ACACGCAT | 0.365 |
| ACCATGCT | 0.419 |
| CATGTGGG | 0.46 |
| CATGGAGG | 0.312 |
| CACGAGTA | 0.401 |
| ATCGCATG | 0.298 |
| ACCGCATG | 0.373 |
| ACGCGCGT | 0.341 |
| AGACATGC | 0.407 |
| ATGTGTGG | 0.271 |
| CATGGGTC | 0.275 |
| GGCGTGCA | 0.302 |
| GCGCATGA | 0.313 |
| ACATGCAC | 0.402 |
| GTGGAAAC | 0.267 |
| CCCGTCCC | 0.32 |
| CACACGCC | 0.347 |
| CACGCATA | 0.309 |

Set 3
Target: OGT, full length, His-tagged (human)
Technique: phage display, sequencing
Matrix: in vitro
Tested at: 1 µg OGT
Setting: single substitutions, 15-mer displayed peptide, unchanged parent 16.7
Relative to: input library
Reading: higher = stronger binding
Starting sequence: peptide; NSEYMPQYQIIFAHQ
| Substitution | fold enrichment [fold] |
| --- | --- |
| H14W | 7.66 |
| A13I | 11.5 |
| Y8V | 3.24 |
| Q7M | 12.8 |
| N1Q | 16.3 |
| I11T | 8.68 |
| M5K | 10.2 |
| Y4L | 7.02 |
| I10K | 0.571 |
| Y8I | 2.76 |
| S2D | 19.5 |
| H14S | 15 |
| Y8P | 0.698 |
| F12T | 7.43 |
| M5L | 16.1 |
| M5D | 2.79 |
| I11F | 14.6 |
| P6V | 3.02 |
| Q7I | 5.85 |
| I10E | 0.744 |
| E3F | 12.5 |
| F12Y | 18.8 |
| M5H | 7.95 |
| P6E | 0.752 |
| A13D | 17.4 |

Set 4
Target: ABI1, truncated, D143A, DHFR fusion (Arabidopsis thaliana)
Technique: DHFR PCA, deep sequencing
Matrix: yeast
Setting: methotrexate growth selection, single substitutions
Together with: (+)-ABA 2500 µM
Relative to: wild-type fitted maximum
Reading: higher = stronger binding
Starting sequence: PYL1, truncated, DHFR fusion (Arabidopsis thaliana); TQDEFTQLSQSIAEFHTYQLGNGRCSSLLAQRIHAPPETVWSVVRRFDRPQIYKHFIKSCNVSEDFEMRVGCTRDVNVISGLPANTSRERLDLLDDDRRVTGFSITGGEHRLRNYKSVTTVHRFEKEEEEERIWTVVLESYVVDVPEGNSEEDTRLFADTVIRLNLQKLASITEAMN
| Substitution | relative binding score |
| --- | --- |
| K58G | 89.1% |
| R123D | 101% |
| L138R | 60.4% |
| E129K | 106% |
| V40M | -15.2% |
| H16E | 53.6% |
| R163Q | 88.8% |
| R163L | 77.8% |
| L20V | 101% |
| N61L | 95.4% |
| A35H | 65.8% |
| R45G | 78% |
| F56T | 69.2% |
| S80G | 78.3% |

Repeated from above (set 2):
| Sequence | E-score |
| --- | --- |
| ACCGCATG | 0.373 |
| CAAACACG | 0.375 |
| CACACGCC | 0.347 |
| ACATGCAC | 0.402 |
| ACATGACC | 0.3 |
| CATGGGTC | 0.275 |
| ATCGCATG | 0.298 |
